Assay results gathered from unrelated publications.
Lines come from different studies, so protocols differ.
Organism: Mycobacterium tuberculosis

Structure (SMILES) = CCSc1cnn(-c2ccccc2)c(=O)c1Cl; test = bacterial growth; system = H37Rv, 7H9 medium with OADC; MIC = > 940 µM
Structure (SMILES) = COc1ccc2nccc(CC[C@H]3OC[C@H](NC(=O)c4ccc(Cl)cc4)CO3)c2c1; test = microbial growth; system = H37RV; MIC = 2 µg/mL
Structure (SMILES) = Cc1nc(=S)[nH]c(C)c1/N=N/c1nnc(S)s1; test = microbial growth, resazurin; system = H37RV; conditions = 5 days; MIC = 4 to 64 µg/mL
Structure (SMILES) = NC(=S)N/N=C/c1ccc(OC(=O)CC2SC(=O)NC2=O)cc1 (centres unmarked); test = Alamar blue; system = 192; MIC = 2.84 µM
Structure (SMILES) = COc1c(Cl)cnn(-c2cccc(C)c2)c1=O; test = bacterial growth; system = H37Rv, Sauton's medium; MIC = > 1000 µM
Structure (SMILES) = Cc1nnc2nc(-c3ccccn3)cc(NCCc3ccc(OC(F)(F)F)cc3)n12; test = microbial growth; system = H37RV; conditions = 5 days; MIC = 17 to 50 µM
Structure (SMILES) = CCc1nc2ccccn2c1C(=O)NCc1ccc2oc(-c3ccc(OC(F)(F)F)cc3)nc2c1; test = optical density; system = H37Rv; conditions = 144 h; MIC = > 25 µM
Structure (SMILES) = Nc1cc(S(N)(=O)=O)ccc1O; system = pabC deletion mutant; conditions = concentration not given, 12 days; MIC = > 100 µM
Structure (SMILES) = O=C(CN1C(=O)CSC1=O)Oc1ccc(/C=N/NC(=S)Nc2cccc(Cl)c2)cc1Cl; test = microbial growth, resazurin; system = H37RV; MIC = 32.2 µM
Structure (SMILES) = O=C1NN(c2ccccc2)C(=O)C1/N=N/c1nnc(S)[nH]1 (centres unmarked); test = microbial growth, resazurin; system = H37RV; conditions = 5 days; MIC = > 64 µg/mL
Structure (SMILES) = Cc1nc2cc(OC(F)(F)F)ccn2c1C(=O)NCc1ccc2oc(-c3ccc(OC(F)(F)F)cc3)nc2c1; test = optical density; system = H37Rv; conditions = 144 h; MIC = > 10 µM
Structure (SMILES) = Cc1ccc2nc(C)c(C(=O)C(=O)NCc3ccc(N(C)C)cc3)n2c1; test = microbial growth; system = H37RV; conditions = 5 days; MIC = 3.1 µM
Structure (SMILES) = NC(=S)N/N=C/c1ccc(OC(=O)/C=C2\SC(=O)NC2=O)cc1; test = Alamar blue; system = 192; MIC = 5.71 µM
Structure (SMILES) = O=C1NNC(=O)C1/N=N/c1nnc(S)[nH]1; test = microbial growth, resazurin; system = H37RV; conditions = 5 days; MIC = > 64 µg/mL
Structure (SMILES) = CCC(CO)NCCNC(CC)CO.CCOc1cc(C=NNC(=O)c2ccncc2)ccc1OC(=O)CN1C(=O)CSC1=O; test = growth in combination; system = H37Rv; conditions = added: reference drug at 1/2 MIC; MIC = 0.5 µg/mL
Structure (SMILES) = COc1c(N2CC3CCCNC3C2)c(F)cc2c(=O)c(C(=O)OCc3cnc([N+](=O)[O-])n3C)cn(C3CC3)c12 (centres unmarked); test = microbial growth; system = H37RV; MIC = 1 µM
Structure (SMILES) = Clc1ccc(CCNc2cc(-c3ccccn3)nc3cc(C4CC4)nn23)cc1; test = microbial growth; system = H37RV; MIC = 42 µM
Structure (SMILES) = CCc1ccn2c(C(=O)NC(C)c3ccccc3)c(C)nc2c1 (centres unmarked); test = microbial growth; system = H37RV; conditions = 5 days; MIC = 2.5 µM
Structure (SMILES) = COc1ccc2nccc(CC[C@H]3OC[C@H](NC(=O)c4ccc5c(n4)NC(=O)CS5)CO3)c2c1; test = microbial growth; system = H37RV; MIC = ≤ 1 µg/mL
Structure (SMILES) = CCCCNc1c(Cl)cnn(-c2ccccc2)c1=O; test = bacterial growth; system = H37Rv, Sauton's medium; MIC = 900 µM
Structure (SMILES) = CCc1nc2cc(OC(F)(F)F)ccn2c1C(=O)NCc1ccc2oc(-c3ccc(OC(F)(F)F)cc3)nc2c1; test = optical density; system = H37Rv; conditions = 144 h; MIC = > 25 µM
Structure (SMILES) = O=c1c(N2CCCC2)c(Cl)cnn1-c1ccccc1; test = bacterial growth; system = H37Rv, Sauton's medium; MIC = 910 µM
Structure (SMILES) = Cc1nc2ccc(Br)cn2c1C(=O)NCc1ccc2oc(-c3ccc(OC(F)(F)F)cc3)nc2c1; test = optical density; system = H37Rv; conditions = 144 h; MIC = 0.2 µM
Structure (SMILES) = O=c1c(Cl)c(Cl)cnn1Cc1ccccc1; test = bacterial growth; system = H37Rv, 7H9 medium with OADC; MIC = 490 µM
Structure (SMILES) = CC(C)C[C@H](NC(=O)[C@@H](N)CO)C(=O)N[C@@H](CCC(=O)O)C(=O)N[C@H](C(=O)N[C@H](C(=O)N[C@@H](CCC(=O)O)C(=O)N[C@@H](C)C(=O)N[C@@H](CC(=O)O)C(=O)O)[C@@H](C)OP(=O)(O)O)C(C)C; system = H37Rv; MIC = > 200 µg/mL
Structure (SMILES) = CCOc1c(Cl)cnn(-c2ccccc2)c1=O; test = bacterial growth; system = H37Rv, Sauton's medium; MIC = 1000 µM
Structure (SMILES) = Clc1ccc(CCNc2cc(-c3ccccn3)nc3ncnn23)cc1; test = microbial growth; system = H37RV; conditions = 5 days; MIC = 0.71 µM
Structure (SMILES) = CCc1nc2ccc(Br)cn2c1C(=O)NCc1ccc2oc(-c3ccc(OC(F)(F)F)cc3)nc2c1; test = optical density; system = H37Rv; conditions = 144 h; MIC = 0.4 µM
Structure (SMILES) = Cc1[nH]n(-c2ccccc2)c(=O)c1/N=N/c1nnc(S)[nH]1; test = microbial growth, resazurin; system = H37RV; conditions = 5 days; MIC = > 64 µg/mL
Structure (SMILES) = CN[C@@H]1[C@H](O)[C@H](NC)[C@H]2O[C@]3(O)[C@H](O[C@@H]2[C@H]1O)O[C@H](C)C[C@H]3NC(=O)Cc1cc(Cl)ccn1; MIC = 0.8 µg/mL
Structure (SMILES) = COc1c(N2CC3CCCNC3C2)c(F)cc2c(=O)c(C(=O)OCc3ccc([N+](=O)[O-])s3)cn(C3CC3)c12 (centres unmarked); test = microbial growth; system = H37RV; MIC = 2 to 8 µM
Structure (SMILES) = CCc1ccn2c(C(=O)N(C)Cc3ccccc3)c(C)nc2c1; test = microbial growth; system = H37RV; conditions = 5 days; MIC = > 20 µM
Structure (SMILES) = O=C(CN1C(=O)CSC1=O)Oc1ccc(/C=N/NC(=O)c2cccnc2)cc1Br; test = microbial growth, resazurin; system = H37RV; MIC = 268 µM
Structure (SMILES) = CCc1nc2ccc(C(F)(F)F)cn2c1C(=O)NCc1ccc2oc(-c3ccc(Cl)cc3)nc2c1; test = optical density; system = H37Rv; conditions = 144 h; MIC = > 10 µM
Structure (SMILES) = COc1ccc2ncc(F)c(C(O)C[C@H]3OC[C@H](NCc4ccc5c(c4)OCCO5)CO3)c2c1 (some centres unmarked); test = microbial growth; system = H37RV; MIC = 8 µg/mL
Structure (SMILES) = O=C1NNC(=O)C1/N=N/c1nnc(S)s1; test = microbial growth, resazurin; system = H37RV; conditions = 5 days; MIC = > 64 µg/mL
Structure (SMILES) = CCc1ccn2c(C(=O)NCc3ccccc3)c(C)nc2c1; test = microbial growth, resazurin; system = H37RV; MIC = < 0.195 µM
Structure (SMILES) = COc1c(N2CC3CCCN(C(=O)OCc4cnc([N+](=O)[O-])s4)C3C2)c(F)cc2c(=O)c(C(=O)O)cn(C3CC3)c12 (centres unmarked); test = microbial growth; system = H37RV; MIC = 0.25 µM
Structure (SMILES) = O=C(CN1C(=O)CSC1=O)Oc1ccc(/C=N/NC(=O)c2ccncc2)cc1Br; test = Alamar blue; system = 192; MIC = 0.524 µM
Structure (SMILES) = O=C1NN(c2ccccc2)C(=O)C1/N=N/c1nnc(S)s1 (centres unmarked); test = microbial growth, resazurin; system = H37RV; conditions = 5 days; MIC = > 64 µg/mL
Structure (SMILES) = CCc1ccn2c(C(=O)N(C)C)c(C)nc2c1; test = microbial growth; system = H37RV; conditions = 5 days; MIC = 66 µM
Structure (SMILES) = CCC(CO)NCCNC(CC)CO.O=C(CN1C(=O)CSC1=O)Oc1ccc(C=NNC(=O)c2ccncc2)cc1Cl; test = growth in combination; system = H37Rv; conditions = added: reference drug at 1/2 MIC; MIC = 0.5 µg/mL
Structure (SMILES) = Cc1nc2cc(Br)ccn2c1C(=O)NCc1ccc2oc(-c3ccc(OC(F)(F)F)cc3)nc2c1; test = optical density; system = H37Rv; conditions = 144 h; MIC = > 10 µM
Structure (SMILES) = COc1ccc2ncc(F)c(C[C@H](O)[C@H]3OC[C@H](NCc4ccc(C)cc4)CO3)c2n1; test = microbial growth; system = H37RV; MIC = ≤ 1 µg/mL
Structure (SMILES) = COc1cc(C=NNC(=O)c2ccncc2)ccc1OC(=O)CN1C(=O)CSC1=O.NNC(=O)c1ccncc1; test = growth in combination; system = H37Rv; conditions = added: reference drug at 1/2 MIC; MIC = 0.0312 µg/mL
Structure (SMILES) = Cc1nc2cc(OC(F)(F)F)ccn2c1C(=O)NCc1ccc2oc(-c3ccc(Cl)cc3)nc2c1; test = optical density; system = H37Rv; conditions = 144 h; MIC = > 10 µM
Structure (SMILES) = COc1ccc2nccc(CC[C@H]3OC[C@H](NCc4ccc5c(c4)OCCO5)CO3)c2c1; test = microbial growth; system = H37RV; MIC = 32 µg/mL

Some of these lines once more:
Structure (SMILES) = CCc1nc2ccccn2c1C(=O)NCc1ccc2oc(-c3ccc(OC(F)(F)F)cc3)nc2c1; test = optical density; system = H37Rv; conditions = 144 h; MIC = > 25 µM
Structure (SMILES) = Nc1cc(S(N)(=O)=O)ccc1O; system = pabC deletion mutant; conditions = concentration not given, 12 days; MIC = > 100 µM
Structure (SMILES) = O=C(CN1C(=O)CSC1=O)Oc1ccc(/C=N/NC(=S)Nc2cccc(Cl)c2)cc1Cl; test = microbial growth, resazurin; system = H37RV; MIC = 32.2 µM
Structure (SMILES) = O=C1NN(c2ccccc2)C(=O)C1/N=N/c1nnc(S)[nH]1 (centres unmarked); test = microbial growth, resazurin; system = H37RV; conditions = 5 days; MIC = > 64 µg/mL
Structure (SMILES) = Cc1nc2cc(OC(F)(F)F)ccn2c1C(=O)NCc1ccc2oc(-c3ccc(OC(F)(F)F)cc3)nc2c1; test = optical density; system = H37Rv; conditions = 144 h; MIC = > 10 µM
Structure (SMILES) = Cc1ccc2nc(C)c(C(=O)C(=O)NCc3ccc(N(C)C)cc3)n2c1; test = microbial growth; system = H37RV; conditions = 5 days; MIC = 3.1 µM
Structure (SMILES) = NC(=S)N/N=C/c1ccc(OC(=O)/C=C2\SC(=O)NC2=O)cc1; test = Alamar blue; system = 192; MIC = 5.71 µM
